Measured values gathered from unrelated publications.
Each numbered part is a random draw from the data of one study; scales do not carry over between parts. Positions count from the first letter of the parent shown.

Study 1
Target: CCNB3, cyclin fold, Cln2 fusion (human)
Technique: yeast growth competition, sequencing
Medium: yeast
Notes: weak parent motif
Relative to: not given
Reading: higher = stronger binding
Starting sequence: MASTL docking peptide (human); PMIAKNLMCELDE; partner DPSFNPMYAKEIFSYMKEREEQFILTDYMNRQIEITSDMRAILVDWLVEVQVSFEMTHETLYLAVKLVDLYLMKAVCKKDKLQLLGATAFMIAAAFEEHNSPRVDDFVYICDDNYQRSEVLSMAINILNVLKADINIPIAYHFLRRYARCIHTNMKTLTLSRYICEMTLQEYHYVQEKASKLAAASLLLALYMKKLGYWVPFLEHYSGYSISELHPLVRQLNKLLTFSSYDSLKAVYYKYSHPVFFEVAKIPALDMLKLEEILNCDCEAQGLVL
`PMIAKNLMCEYDE [L11Y]` — result for “normalised enrichment score”: -0.238.
`PMIAKWLMCELDE [N6W]` — result for “normalised enrichment score”: 0.522.
`PMIAKNLMCEHDE [L11H]` — result for “normalised enrichment score”: 0.0418.
`PMIAKNLMCELWE [D12W]` — result for “normalised enrichment score”: -0.154.
`PMIAKYLMCELDE [N6Y]`: “normalised enrichment score” 0.0214.
`PMIAKNLMCGLDE [E10G]` — result for “normalised enrichment score”: -0.0167.
Under “normalised enrichment score”, `PMIAKNLMCELIE [D12I]` is recorded as -0.416.
For `PDIAKNLMCELDE [M2D]`, “normalised enrichment score” read 0.0142.
For `PMIAKNWMCELDE [L7W]`, “normalised enrichment score” read 0.0143.
`PMIAKNSMCELDE [L7S]`: “normalised enrichment score” -0.0703.
`PMIAKNLMCEKDE [L11K]`: “normalised enrichment score” -0.074.
`PMIAENLMCELDE [K5E]`: “normalised enrichment score” 0.000539.
`PLIAKNLMCELDE [M2L]`: “normalised enrichment score” 0.00634.
`PMIAKNLMCEFDE [L11F]`: “normalised enrichment score” -0.268.
For `PMIAANLMCELDE [K5A]`, “normalised enrichment score” read -0.0396.
`PMIAKNLDCELDE [M8D]`: “normalised enrichment score” -0.226.
For `PMIAQNLMCELDE [K5Q]`, “normalised enrichment score” read -0.361.
`PTIAKNLMCELDE [M2T]` — result for “normalised enrichment score”: 0.0125.
`PMISKNLMCELDE [A4S]`: “normalised enrichment score” -0.208.
For `PMIAKNLHCELDE [M8H]`, “normalised enrichment score” read 0.0775.
`PEIAKNLMCELDE [M2E]`: “normalised enrichment score” 0.0226.
`PMIAFNLMCELDE [K5F]`: “normalised enrichment score” -0.0403.
Under “normalised enrichment score”, `PMIAKNLMCFLDE [E10F]` is recorded as -0.117.
`PMIAKNLLCELDE [M8L]` — result for “normalised enrichment score”: 0.205.
`PMIAKNLMCENDE [L11N]`: “normalised enrichment score” -0.208.

Study 2
Target: Sal-like protein 4, full length isoform B (SALL4, Homo sapiens, UniProt Q9UJQ4-2, residues 1-616)
Technique: universal PBM
Form: double-stranded DNA, one strand shown
Medium: in vitro
Concentration: not given
Notes: 8-mer, flanks averaged, mean of replicates
Reading: higher = stronger binding
For `AGCTTTCC`, the E-score was -0.171.
The E-score of `GGCTAAAA` is reported as 0.0412.
`GGTAGGAC` has an E-score of -0.222.
With `CGAGTGAA` the E-score was -0.0107.
`CCTCAATA` gave an E-score of 0.117.
The E-score of `ATGCCTGC` is reported as -0.117.
The E-score of `CCAGCTGG` is reported as -0.233.
The E-score of `AGGAATAA` is reported as 0.251.
`ATCGCCCA` has an E-score of -0.21.
With `ACTATAGG` the E-score was 0.109.
With `ACTAGGTA` the E-score was 0.128.
For `CACGGTCC`, the E-score was -0.386.
With `AGCCCCTC` the E-score was -0.172.
The E-score of `CTATATCC` is reported as 0.0604.
`ATAGACGC` gave an E-score of 0.208.
With `AAACCCTG` the E-score was -0.00884.
`GGTACTCA` gave an E-score of -0.00098.
The E-score of `CGACTTGA` is reported as -0.0156.
`CCAATGTA` gave an E-score of 0.031.
The E-score of `AGGCGTCG` is reported as -0.21.
The E-score of `ACGAAGTG` is reported as 0.0265.
The E-score of `AAGCGCGC` is reported as -0.226.
The E-score of `ATTAGCTG` is reported as -0.0106.

Study 3
Target: ATF3, bZIP domain (human)
Technique: DHFR protein complementation
Medium: yeast
Notes: single substitutions, most at no-binding floor
Relative to: wild-type JUN-FOS pair
Reading: higher = stronger binding
Starting sequence: JUN, bZIP domain (human); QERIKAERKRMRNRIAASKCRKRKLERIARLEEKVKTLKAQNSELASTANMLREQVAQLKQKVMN; partner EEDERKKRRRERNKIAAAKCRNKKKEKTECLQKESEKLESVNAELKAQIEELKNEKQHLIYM
`K39T` has a binding fitness of -0.198 natural log.
For `K34V`, the binding fitness was -0.346 natural log.
With `A40C` the binding fitness was -0.298 natural log.
With `V35M` the binding fitness was -0.306 natural log.
With `R30D` the binding fitness was -0.059 natural log.
`E54T` gave a binding fitness of -0.22 natural log.
`E32M` gave a binding fitness of -0.371 natural log.
`V35A` has a binding fitness of -0.849 natural log.
The binding fitness of `R53M` is reported as -0.237 natural log.
`Q55W` gave a binding fitness of -0.962 natural log.
For `E44C`, the binding fitness was -0.261 natural log.
The binding fitness of `S47F` is reported as -0.0968 natural log.
`E32H` has a binding fitness of -0.352 natural log.
`A29K` has a binding fitness of -0.253 natural log.
The binding fitness of `L31N` is reported as -0.81 natural log.
`S43P` has a binding fitness of -1.2 natural log.
`Q41V` gave a binding fitness of -0.179 natural log.
`L52W` gave a binding fitness of -1.08 natural log.
The binding fitness of `K39N` is reported as -0.354 natural log.
`R53K` gave a binding fitness of -0.114 natural log.
The binding fitness of `M51T` is reported as -0.0747 natural log.
For `S47I`, the binding fitness was -0.0919 natural log.
`L52I` gave a binding fitness of -0.488 natural log.

Study 4
Target: Interferon regulatory factor 7, full length, phosphomimetic (IRF7, Homo sapiens, UniProt Q92985, residues 1-503, S101K/S471D/S472D/S475D/S476D/S477D/S483D/S484D/S487D)
Chain of UniProt Q92985 (whole entry, unmodified, looked up): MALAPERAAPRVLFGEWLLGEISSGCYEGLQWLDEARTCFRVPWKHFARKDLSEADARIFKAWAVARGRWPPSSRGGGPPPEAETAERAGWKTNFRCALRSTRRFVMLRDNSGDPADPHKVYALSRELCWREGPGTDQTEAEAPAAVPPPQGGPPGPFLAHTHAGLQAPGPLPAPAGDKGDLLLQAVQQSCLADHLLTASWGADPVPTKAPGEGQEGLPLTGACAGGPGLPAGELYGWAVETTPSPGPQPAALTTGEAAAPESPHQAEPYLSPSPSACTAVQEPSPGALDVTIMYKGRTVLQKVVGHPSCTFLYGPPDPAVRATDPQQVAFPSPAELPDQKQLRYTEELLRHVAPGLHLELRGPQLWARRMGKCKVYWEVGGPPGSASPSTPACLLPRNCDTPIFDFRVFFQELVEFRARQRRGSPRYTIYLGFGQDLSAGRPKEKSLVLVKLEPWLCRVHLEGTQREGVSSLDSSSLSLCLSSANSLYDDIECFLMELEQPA
Technique: protein-binding microarray
Form: double-stranded DNA, one strand shown
Medium: in vitro
Concentration: 250 nM
Notes: 60-bp whole probe
Together with: salmon DNA 0.4 mg/ml
Relative to: random background probes
Reading: higher = stronger binding
Constant ends, left off below: GCCTAGCAC … GTCTTGATTCGCTTGACGCTGCTG
For `GACCGACTGGGTCTCGGGACGTGCTAG`, the log fluorescence was 0.144 z-score.
The log fluorescence of `TTAGATATCAGTATCGATTGGTGCTAG` is reported as 1.05 z-score.
The log fluorescence of `TTAGGAATCGGTTTCGGTTAGTGCTAG` is reported as 10.7 z-score.
With `TCACAGTTGAGTTCTGTTACTGTGCTA` the log fluorescence was -0.274 z-score.
`TCATGTTTGTCACTCTCAGAGTGCTAG` gave a log fluorescence of 0.73 z-score.
`TTAGCTATCGGTATCGGTTAGTGCTAG` has a log fluorescence of 0.973 z-score.
With `GGTGTTTTACAGGTTCTCTTTGTGCTA` the log fluorescence was 0.0277 z-score.
The log fluorescence of `AACGGTATCCTTATCCTGACGTGCTAG` is reported as 0.354 z-score.
For `TTAGGTTTCCGTCTCCTTTAGTGCTAG`, the log fluorescence was 2.84 z-score.
`TCATTTTTCTGAACCATACTGTGCTAG` gave a log fluorescence of 1.21 z-score.
`GACGGTTCCCTCTTCCTGACGTGCTAG` gave a log fluorescence of 1.02 z-score.
`TTAGGACTGGGCTTCGGTTAGTGCTAG` gave a log fluorescence of -0.0375 z-score.
`TTAGATATCAGTAACGATTAGTGCTAG` gave a log fluorescence of -0.139 z-score.
`GACGGTCTCGGCCTGGGGACGTGCTAG` has a log fluorescence of -0.398 z-score.
`TTAGATTTCAGTATCGAGTAGTGCTAG` has a log fluorescence of 0.6 z-score.
`GACGGTATCCTTATCCTTACGTGCTAG` has a log fluorescence of 0.15 z-score.
`GACGGTTTCGGGTTTTGGGACGTGCTA` has a log fluorescence of 9.96 z-score.
For `GACGATTTCAGTCTTGAGACGTGCTAG`, the log fluorescence was 0.0837 z-score.
With `TTTGCTTTCTTTTTGCACTCGTGCTAG` the log fluorescence was 1.37 z-score.

Study 5
Target: ABI1, truncated, D143A, DHFR fusion (Arabidopsis thaliana)
Technique: DHFR PCA, deep sequencing
Medium: yeast
Notes: methotrexate growth selection, single substitutions
Together with: (+)-ABA 4.8 µM
Relative to: wild-type fitted maximum
Reading: higher = stronger binding
Starting sequence: PYL1, truncated, DHFR fusion (Arabidopsis thaliana); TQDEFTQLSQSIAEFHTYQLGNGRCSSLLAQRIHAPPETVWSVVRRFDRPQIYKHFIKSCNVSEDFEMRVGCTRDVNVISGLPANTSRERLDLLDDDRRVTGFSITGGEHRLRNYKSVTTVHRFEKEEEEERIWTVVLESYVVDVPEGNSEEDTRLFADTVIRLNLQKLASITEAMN; partner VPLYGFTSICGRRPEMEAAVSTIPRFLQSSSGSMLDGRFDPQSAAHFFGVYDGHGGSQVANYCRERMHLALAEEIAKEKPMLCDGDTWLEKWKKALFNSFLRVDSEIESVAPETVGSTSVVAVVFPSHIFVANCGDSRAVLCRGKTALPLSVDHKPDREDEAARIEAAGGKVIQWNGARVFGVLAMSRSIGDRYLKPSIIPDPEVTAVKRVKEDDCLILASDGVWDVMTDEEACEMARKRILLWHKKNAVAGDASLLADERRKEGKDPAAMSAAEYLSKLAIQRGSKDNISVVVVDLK
For `F157E`, “relative binding score” read -0.212%.
`T73A` — result for “relative binding score”: 31.6%.
`N22F` — result for “relative binding score”: 66.5%.
`F56C` — result for “relative binding score”: 0.967%.
`I172L`: “relative binding score” 65%.
`M176I` — result for “relative binding score”: 60.9%.
`V70Q` — result for “relative binding score”: 37.5%.
Under “relative binding score”, `K58A` is recorded as 67.8%.
`E174F`: “relative binding score” 8.59%.
Under “relative binding score”, `Q19K` is recorded as 81.3%.
`Q167G`: “relative binding score” 56.7%.
`E129N` — result for “relative binding score”: 73.2%.
`F5C` — result for “relative binding score”: 65.3%.
`V78G`: “relative binding score” 7.41%.
`A158W` — result for “relative binding score”: -0.822%.
`T106Q` — result for “relative binding score”: 49.2%.
Under “relative binding score”, `M176R` is recorded as 64.8%.
`Y115F`: “relative binding score” 55.3%.
`P83E` — result for “relative binding score”: 10.2%.
`L82I`: “relative binding score” 66.1%.
Under “relative binding score”, `T6K` is recorded as 80.4%.
`M176A`: “relative binding score” 64.9%.
Under “relative binding score”, `S80E` is recorded as 0.974%.
`T6S` — result for “relative binding score”: 78.8%.
`A13L`: “relative binding score” 63.6%.

Repeated from above (study 5):
Under “relative binding score”, `K58A` is recorded as 67.8%.
`E174F`: “relative binding score” 8.59%.
Under “relative binding score”, `Q19K` is recorded as 81.3%.
`Q167G`: “relative binding score” 56.7%.
`E129N` — result for “relative binding score”: 73.2%.
`F5C` — result for “relative binding score”: 65.3%.
`V78G`: “relative binding score” 7.41%.
`A158W` — result for “relative binding score”: -0.822%.
`T106Q` — result for “relative binding score”: 49.2%.
